Measurements pooled from the literature.
Lines come from different studies, so protocols differ.
Target: Amine oxidase [flavin-containing] B (MAOB, Homo sapiens, UniProt P27338)
Sequence of UniProt P27338 (whole entry, looked up): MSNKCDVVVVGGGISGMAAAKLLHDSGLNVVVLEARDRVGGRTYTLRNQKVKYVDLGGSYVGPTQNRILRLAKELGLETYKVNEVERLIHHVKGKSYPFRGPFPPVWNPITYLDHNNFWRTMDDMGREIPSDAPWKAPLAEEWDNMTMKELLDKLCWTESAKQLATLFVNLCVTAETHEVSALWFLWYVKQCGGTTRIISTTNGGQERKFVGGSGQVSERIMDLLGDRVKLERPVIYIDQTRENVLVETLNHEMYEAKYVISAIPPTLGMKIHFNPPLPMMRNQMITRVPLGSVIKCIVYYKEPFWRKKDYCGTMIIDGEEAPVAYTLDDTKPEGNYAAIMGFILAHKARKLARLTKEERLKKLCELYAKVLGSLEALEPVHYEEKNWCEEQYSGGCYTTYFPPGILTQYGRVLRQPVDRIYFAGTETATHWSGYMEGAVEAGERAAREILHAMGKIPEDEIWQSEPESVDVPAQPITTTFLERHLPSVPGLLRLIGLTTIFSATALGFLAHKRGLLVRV
Read-out: enzyme activity
Action: inhibitor
Concentration: 10 µM

For `O=C(/C=C/c1ccc(F)cc1)c1cc2ccccc2oc1=O`, the remaining activity was 30.8%.
`S=C(N/N=C/c1cccc(OCc2ccccc2)c1)Nc1ccccc1` has a remaining activity of -0.86% (absorbance).
With `O=C(/C=C/c1ccc(Br)cc1)c1ccc(N2CCNCC2)cc1` the remaining activity was 26.9%.
`CNC(=S)N/N=C/c1ccccc1OCc1ccccc1` gave a remaining activity of 24.7% (absorbance).
For `O=C(/C=C/c1ccccc1F)c1cc2ccccc2oc1=O`, the remaining activity was 37.7%.
`CNC(=S)N/N=C/c1ccc(OCc2ccccc2)cc1` gave a remaining activity of 3.81% (absorbance).
With `O=C1c2cc(Cl)ccc2NC12CCCC2` the remaining activity was 78%.
`O=C(/C=C/c1ccc(Cl)cc1)c1cc2ccccc2oc1=O` gave a remaining activity of 60.1%.
For `O=C1c2ccccc2N(Cc2ccc(F)cc2)C12CCCC2`, the remaining activity was 57%.
The remaining activity of `O=C(/C=C/c1cccc(Br)c1)c1cc2ccccc2oc1=O` is reported as 95.6%.
`CNC(=S)N/N=C/c1ccc(OCc2cccc(F)c2)cc1` has a remaining activity of 16.6% (absorbance).
`Cc1ccc(/C=C/C(=O)c2ccc(N3CCNCC3)cc2)cc1` gave a remaining activity of 29.5%.
With `O=C(/C=C/c1ccccc1)c1cc2ccccc2oc1=O` the remaining activity was 10.4%.
For `O=C(/C=C/c1ccc(O)cc1)c1ccc(N2CCNCC2)cc1`, the remaining activity was 13.3%.
`N#Cc1ccc(CN2c3ccccc3C(=O)C23CCCC3)cc1` gave a remaining activity of 2.19%.
`O=C(/C=C/c1ccc(C(F)(F)F)cc1)c1ccc(N2CCNCC2)cc1` gave a remaining activity of 10.4%.
The remaining activity of `O=C1c2cc(Br)ccc2NC12CCCC2` is reported as 67%.
The remaining activity of `NC(=S)N/N=C/c1cccc(OCc2ccccc2)c1` is reported as 13.6% (absorbance).
With `O=C1c2ccccc2N(Cc2cccc(Cl)c2)C12CCCC2` the remaining activity was -3.28%.
`NC(=O)N/N=C/c1ccc(OCc2cccc(F)c2)cc1` gave a remaining activity of 3.57% (absorbance).

A few entries again:
For `O=C(/C=C/c1ccc(O)cc1)c1ccc(N2CCNCC2)cc1`, the remaining activity was 13.3%.
